Published values from different studies.
Parts stem from different laboratories: compare values within a part only. Substitutions count along the parent as printed.

Sample 1
Target: Interferon regulatory factor 7, full length, phosphomimetic (IRF7, Homo sapiens, UniProt Q92985, residues 1-503, S101K/S471D/S472D/S475D/S476D/S477D/S483D/S484D/S487D)
Chain of UniProt Q92985 (whole entry, unmodified, looked up): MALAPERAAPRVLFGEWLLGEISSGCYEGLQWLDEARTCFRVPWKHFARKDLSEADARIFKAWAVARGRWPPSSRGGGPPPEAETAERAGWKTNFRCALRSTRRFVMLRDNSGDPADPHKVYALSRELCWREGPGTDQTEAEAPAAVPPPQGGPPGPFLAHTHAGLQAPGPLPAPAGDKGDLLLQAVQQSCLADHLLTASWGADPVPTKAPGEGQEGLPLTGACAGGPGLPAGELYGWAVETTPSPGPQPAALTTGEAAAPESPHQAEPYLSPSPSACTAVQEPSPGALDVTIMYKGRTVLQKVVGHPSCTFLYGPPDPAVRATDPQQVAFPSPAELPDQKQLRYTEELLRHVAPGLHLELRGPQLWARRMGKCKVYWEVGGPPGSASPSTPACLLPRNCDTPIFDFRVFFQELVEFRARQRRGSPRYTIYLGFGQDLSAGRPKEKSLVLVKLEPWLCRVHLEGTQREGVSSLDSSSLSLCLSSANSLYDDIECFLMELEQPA
Technique: protein-binding microarray
Molecule type: double-stranded DNA, one strand shown
Matrix: in vitro
Tested at: 250 nM
Setting: 60-bp whole probe
Added: salmon DNA 0.4 mg/ml
Baseline: random background probes
Reading: higher = stronger binding
Shared flanks, not repeated: GCCTAGCAC … GTCTTGATTCGCTTGACGCTGCTG
Sequence	log fluorescence [z-score]
TTAGAGTTCAGTCTCGATTAGTGCTAG	0.84
GACGGACTGCTTATCCTGTCGTGCTAG	-0.114
GACGGACTTCTTTTCCTGACGTGCTAG	0.381
TCATGACTCTGCCTCTAACTGTGCTAG	-0.182
GACGGTCTCCTTCTCTTGACGTGCTAG	0.0881
GTAGTTTTCATTATTGTTTCGTGCTAG	1.75
TCAACTTTCTTTAACTCACTGTGCTAG	0.37
GACTGACTGGGTATCGGGACGTGCTAG	-0.0992
TTAGGTCTCGGTCACGGTTAGTGCTAG	0.836
GACGACTTCAGTTTCGAGACGTGCTAG	4.03
TCAGTTCACTATTTAAGACTGTGCTAG	1.4
GACGATCTTAGACTGGAGACGTGCTAG	0.0763
ATTGAGAATTCCACTCCGCTGTGCTAG	-0.0863
GACGATATCGGGTATCGAGCCGTGCTA	-0.443
GACGGTATGGGTCTCGGGACGTGCTAG	-0.578
TATGTTGTCCAGGCTGGTCTCGTGCTA	0.484
GACGGACTGCTAATGCTGACGTGCTAG	-0.781
GAGGGTCTCCTTTTCCTGACGTGCTAG	0.719
GACGGTTTCGGGTATGGGGACGTGCTA	6.34
GACGAACTGGGTACTGGAGACGTGCTA	-0.802
TTACATATCAGTTTCGATTAGTGCTAG	8.68
GACGATATCGGGTATGGAGACGTGCTA	-0.0874
GACGATTACAGACTGGAGACGTGCTAG	-0.249
GACGGATTGCTTCTCCTGACGTGCTAG	-0.239
TACGGTTTCGGGTATCGGGACGTGCTA	7.73

Sample 2
Target: Prothrombin, mature alpha-thrombin (F2, Homo sapiens, UniProt P00734)
Technique: aptamer microarray, sandwich
Molecule type: DNA with 2'F-ANA
Matrix: in vitro
Tested at: 200 nM
Setting: whole 15-mer aptamer, many near background
Added: Cy3 exosite-II aptamer, 400 nM
Reading: higher = stronger binding
Sequence: GGTTGGTGTGGTTGG
Modification	mean fluorescence intensity [a.u.]
2'F-ANA at 1 2 6 7 8 9 10 11 14	50.4
2'F-ANA at 4 6 9 10 11 12 13 14 15	63.5
2'F-ANA at 1 2 3 4 6 7 9 10 11 13 14 15	51.9
2'F-ANA at 1 2 3 4 6 8 9 11 12 13 14	64.1
2'F-ANA at 1 3 4 5 6 7 8 9 11 12	101
2'F-ANA at 1 2 3 4 6 7 8 9 11 12 14 15	71
2'F-ANA at 3 5 11 12 13 14 15	60.5
2'F-ANA at 1 5 6 7 8 11 12 13 15	80.4
2'F-ANA at 1 6 7 14 15	59.3
2'F-ANA at 1 2 4 5 9 10 11 12	105
2'F-ANA at 3 4 5 6 9	89.9
2'F-ANA at 4 5 8 10 12 15	104
2'F-ANA at 1 2 3 4 5 6 9 11 14 15	48
2'F-ANA at 2 8 13 14 15	140
2'F-ANA at 1 2 9 11 14	58.6
2'F-ANA at 2 4 7 8 9 13	234
2'F-ANA at 3 4 5 8	118
2'F-ANA at 1 3 8 9 10 11 14	65.2

Sample 3
Target: TAR DNA-binding protein 43, full length, His tag (TARDBP, Homo sapiens, UniProt Q13148, residues 1-414)
Technique: RNA Bind-n-Seq
Molecule type: RNA
Matrix: in vitro
Tested at: 20 nM
Setting: 6-mer, flanks averaged, single round
Added: 150 mM LiCl
Baseline: input library
Reading: higher = stronger binding
Sequence	6-mer enrichment (R)
GAAUCA	0.832
UUGGAC	0.995
ACCCAA	0.91
GCUAGG	1.02
UUCGUG	1.03
UAGAUA	0.876
UAGGUA	0.98
AUCUUA	0.879
CAAGUG	1.02
CGCCCA	0.981
CUUUCA	0.908
AUUGAU	0.908
CGGACA	0.962
UAGACC	0.864
CUGUCG	0.929
CACUAC	0.871
UAAUAA	1.57
CGCCCG	0.973
UUAGAU	0.902
CAAUCU	0.853
ACACGC	0.868
CUUCUC	0.892
CUCAGG	0.853
CUCACA	0.835
UCUAAG	0.84

Sample 4
Target: Histone acetyltransferase KAT6A, winged helix 2, GST fusion (KAT6A, Homo sapiens, UniProt Q92794, residues 85-181)
Technique: protein binding microarray
Molecule type: double-stranded DNA, one strand shown
Matrix: in vitro
Tested at: not given
Setting: 8-mer, flanks averaged, mean of 2 arrays, mostly near background
Baseline: not given
Reading: higher = stronger binding
Target sequence (chain): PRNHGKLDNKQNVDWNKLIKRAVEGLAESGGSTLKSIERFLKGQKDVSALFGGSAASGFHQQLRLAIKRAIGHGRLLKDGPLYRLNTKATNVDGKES
Sequence	E-score
AGGGGTGG	-0.0516
ACGGTATC	-0.0165
CGTTAATA	-0.0726
CAGTAGCA	-0.0747
CAGCGGCC	0.019
CTCATTAC	-0.00857
AAAGGGCT	0.000295
CCATGTTA	-0.142
AGTTACGA	0.189
GATGTGCA	-0.129
ACTTCGCT	0.0582
GCCATGGA	-0.0912
AATCTGGA	0.0221
CTTAGGTA	-0.231
GTAGACGA	-0.0349
GTAGACAA	-0.127
TAAAACTA	0.0559
AATCGCCT	0.181
CTGCTGTA	0.12

Sample 5
Target: Sal-like protein 4, full length isoform A (SALL4, Homo sapiens, UniProt Q9UJQ4, residues 1-1053)
Chain of UniProt Q9UJQ4 (whole entry, looked up): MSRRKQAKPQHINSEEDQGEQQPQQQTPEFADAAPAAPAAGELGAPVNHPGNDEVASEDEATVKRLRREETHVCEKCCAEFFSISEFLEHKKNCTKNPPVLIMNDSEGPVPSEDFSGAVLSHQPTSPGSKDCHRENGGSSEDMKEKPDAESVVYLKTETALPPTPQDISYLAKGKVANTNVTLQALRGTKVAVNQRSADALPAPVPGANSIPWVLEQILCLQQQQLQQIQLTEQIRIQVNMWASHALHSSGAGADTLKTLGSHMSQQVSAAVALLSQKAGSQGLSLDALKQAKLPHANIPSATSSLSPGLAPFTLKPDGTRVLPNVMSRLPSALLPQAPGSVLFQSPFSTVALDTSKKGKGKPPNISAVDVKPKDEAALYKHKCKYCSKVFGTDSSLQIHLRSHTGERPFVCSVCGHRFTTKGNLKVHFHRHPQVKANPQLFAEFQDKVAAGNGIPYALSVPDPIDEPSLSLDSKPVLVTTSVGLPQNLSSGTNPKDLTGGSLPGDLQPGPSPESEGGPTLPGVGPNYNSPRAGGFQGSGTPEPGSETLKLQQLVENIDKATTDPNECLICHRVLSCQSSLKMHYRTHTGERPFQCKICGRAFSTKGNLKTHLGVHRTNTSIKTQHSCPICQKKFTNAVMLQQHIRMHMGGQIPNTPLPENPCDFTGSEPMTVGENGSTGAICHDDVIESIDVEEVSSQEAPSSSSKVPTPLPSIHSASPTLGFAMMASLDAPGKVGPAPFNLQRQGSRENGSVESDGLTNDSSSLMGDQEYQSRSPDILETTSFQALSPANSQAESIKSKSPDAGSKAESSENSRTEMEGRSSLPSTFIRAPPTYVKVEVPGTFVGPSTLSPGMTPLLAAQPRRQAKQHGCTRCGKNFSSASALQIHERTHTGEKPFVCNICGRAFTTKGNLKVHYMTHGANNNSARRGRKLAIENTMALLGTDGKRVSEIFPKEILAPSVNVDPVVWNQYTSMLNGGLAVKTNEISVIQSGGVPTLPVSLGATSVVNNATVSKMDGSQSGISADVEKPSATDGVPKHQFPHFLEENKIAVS
Technique: universal PBM
Molecule type: double-stranded DNA, one strand shown
Matrix: in vitro
Tested at: 600 nM
Setting: 8-mer, flanks averaged, mean of replicates
Reading: higher = stronger binding
Sequence	E-score
GGCTGCAA	0.0111
ACGTCGCG	-0.164
CCGTACTA	0.051
AGAAACTG	-0.0818
CGTACCTA	-0.192
AAGCTGAT	0.0447
CGGTCTGC	-0.326
CCGGTAAC	-0.174
GTGGGACA	-0.172
CGTGCAAC	-0.113
GCCAGACA	-0.0333
CCAGATCG	-0.194
CATACAAC	0.146
GTTAGCAA	0.103
CGGTAGAC	-0.0137
GTCACAGA	0.0179
CCCGGATC	-0.262
GCCACGAA	-0.115
CCCAACAG	-0.186
ATAAGCTC	0.115

Sample 6
Target: Hepatocyte nuclear factor 3-beta, forkhead domain (FOXA2, Homo sapiens, UniProt Q9Y261, residues 142-269)
Technique: protein-binding microarray
Molecule type: double-stranded DNA, one strand shown
Matrix: in vitro
Tested at: not given
Setting: k-mer, scored over probes, only values ≥0.25
Reading: higher = stronger binding
Target sequence (chain): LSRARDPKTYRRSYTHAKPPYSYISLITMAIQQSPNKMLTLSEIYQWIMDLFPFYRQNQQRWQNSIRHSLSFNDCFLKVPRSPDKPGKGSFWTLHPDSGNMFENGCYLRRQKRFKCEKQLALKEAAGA
Sequence	E-score
TACTCATA	0.251
AAGTGTAC	0.332
GTATTACA	0.265
TACGGACA	0.297
AAAAATAT	0.305
AATAACCA	0.257
CATATTAA	0.403
TCTTGTAA	0.28
CATCAATC	0.287
GTACTATA	0.348
GGCATATA	0.307
AACTACAC	0.254
ATGTTTGG	0.298
TACCAGTA	0.273
CAATTCAC	0.251
ATATAGAT	0.344
GGATACAA	0.257
AATACGAA	0.306
AAATGTGT	0.272
AACAATCG	0.271
ATACGACA	0.256
ACATGGTA	0.255
CATACAGA	0.299
ATTGTAGA	0.277

Sample 7
Target: CCNE2, cyclin fold, Cln2 fusion (human)
Technique: yeast growth competition, sequencing
Matrix: yeast
Setting: weak parent motif
Baseline: not given
Reading: higher = stronger binding
Starting sequence: CDT1 docking peptide (human); PPARRRLRLSVDE
Variant	normalised enrichment score
V11A	0.643
R4A	0.719
R8A	1.15
R5K	0.453
L7A	1.54
L9F	3.49
R5A L7A	0.0284
E13A	1.22
P1A	0.661

A few entries again (sample 2):
Modification	mean fluorescence intensity [a.u.]
2'F-ANA at 1 2 4 5 9 10 11 12	105
2'F-ANA at 1 3 8 9 10 11 14	65.2
2'F-ANA at 1 2 3 4 5 6 9 11 14 15	48
2'F-ANA at 1 2 3 4 6 7 9 10 11 13 14 15	51.9
2'F-ANA at 1 6 7 14 15	59.3
2'F-ANA at 3 5 11 12 13 14 15	60.5
2'F-ANA at 1 2 9 11 14	58.6
2'F-ANA at 4 5 8 10 12 15	104
2'F-ANA at 3 4 5 8	118
2'F-ANA at 1 2 6 7 8 9 10 11 14	50.4
2'F-ANA at 2 8 13 14 15	140
2'F-ANA at 3 4 5 6 9	89.9
2'F-ANA at 1 2 3 4 6 7 8 9 11 12 14 15	71
2'F-ANA at 2 4 7 8 9 13	234
2'F-ANA at 1 3 4 5 6 7 8 9 11 12	101
2'F-ANA at 1 2 3 4 6 8 9 11 12 13 14	64.1
2'F-ANA at 1 5 6 7 8 11 12 13 15	80.4
2'F-ANA at 4 6 9 10 11 12 13 14 15	63.5
